Results gathered from unrelated publications.
Lines come from different studies, so protocols differ. Values joined by “and” are separate records of one study, mostly repeats; a detail may differ. In brackets after ≈: the same amount, converted by molar mass.
Organism: Plasmodium falciparum

CS(=O)(=O)c1ccc(-c2cnc(N)c(-c3ccc(C(F)(F)F)nc3)c2)cc1
MIC free (SCID mice; blood stage PKPD model): 0.0115 µg/mL (≈ 0.0292 µM)

CC(C)n1nc(-c2ccc3oc(N)nc3c2)c2c(N)ncnc21
inhibition (parasite growth, inhibitor; 2 µM, 48 h, gametocyte): 97%

CN1CCC(c2cc(-c3ccncc3)c(-c3ccc(F)cc3)[nH]2)CC1
egress (Nluc release; Hyp1-Nluc schizonts; concentration not given, 30 min; relative to: DMSO control): 24%

CCN1CCOCC1c1ccc(Nc2c(-c3ccc(OC(F)(F)F)cc3)cnc3cc(Cl)ccc23)cc1 (centres unmarked)
IC50 (parasite growth, SYBR Green; D6; 72 h, blood stage): ≥ 250 nM

CC(=O)OCc1cn(-c2n[nH]c(C(F)(F)F)n2)nn1
inhibition (parasite growth; NF54; 1 µM, gametocyte): > 75%

FC(F)(F)Oc1ccc(-c2cnc3cc(Cl)ccc3c2Nc2ccc(N3CCOCC3)cc2)cc1
IC50 (parasite growth, SYBR Green; DD2; 72 h, drug-resistant strain, blood stage): ≥ 250 nM

COc1ccc(C(F)(F)F)cc1CN(C)C(c1cccnc1)c1nnnn1-c1ccccc1C (single isomer, unassigned; (+))
EC50 (parasite growth, SYBR Green; 3D7; 72 h): 1600 nM

O=C1c2cc([N+](=O)[O-])ccc2-n2c1nc1cc(Cl)ccc1c2=O
mature gametocyte reduction (stage II gametocytes, NF54; IC50, 2 d, counted at day 7; relative to: DMSO): 40 to 50%

O=C(/C=C/c1ccc(O)c(CN2CCCCC2)c1)c1ccc(F)cc1
EC50 (parasite growth; 3D7; 72 h, blood stage): > 29500 nM

C/C=C1\NC(=O)[C@H]2CSSCC/C=C/[C@H](CC(=O)N[C@H](C(C)C)C(=O)N2)OC(=O)[C@H](C(C)C)NC1=O
histone H4 acetylation (Western blot, refers to: tetra-acetylated histone H4; 3D7 trophozoites; 3 × IC50, 3 h; relative to: DMSO): 2.4 fold and > 1.3 fold

CCN(CC)CCCC(C)Nc1ccnc2cc(Cl)ccc12 (centres unmarked)
growth inhibition ([3H]hypoxanthine incorporation; 3D7; 10 µM, 96 h): ~100%

O=C(NN=Cc1c(O)ccc2ccccc12)c1ccncc1
IC50 increase (parasite growth, [3H]hypoxanthine incorporation; 3D7; 48 h; relative to: Fe(III) complex over free ligand): 102%

CCN(CC)CCCC(C)Nc1ccnc2cc(Cl)ccc12 (centres unmarked)
mature gametocyte reduction (stage II gametocytes, NF54; IC90, 2 d, counted at day 7; relative to: DMSO): ≤ 20%

CC1CCN(Cc2ccc(/C=C/C(=O)c3ccc(Cl)cc3)cc2O)CC1
EC50 (parasite growth; 3D7; 72 h, blood stage): 27500 nM

Excerpt of the above:
CCN(CC)CCCC(C)Nc1ccnc2cc(Cl)ccc12 (centres unmarked)
growth inhibition ([3H]hypoxanthine incorporation; 3D7; 10 µM, 96 h): ~100%

CC1CCN(Cc2ccc(/C=C/C(=O)c3ccc(Cl)cc3)cc2O)CC1
EC50 (parasite growth; 3D7; 72 h, blood stage): 27500 nM
